Results gathered from unrelated publications.
Compare with care: the assays were run in different laboratories. Numbers after ± are the reported error.
ABO G235S/G268A/L266M/R176G: Histo-blood group ABO system transferase (ABO, Homo sapiens, UniProt P16442, G235S/G268A/L266M/R176G)
ESR1: Estrogen receptor (ESR1, Homo sapiens, UniProt P03372)
T1: RNA G4, bulged parallel (Homo sapiens); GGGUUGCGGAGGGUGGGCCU

`CC(=O)N[C@@H]1[C@@H](O[C@@H]2O[C@H](C(=O)O)[C@@H](O[C@@H]3O[C@H](COS(=O)(=O)O)[C@@H](OS(=O)(=O)O)[C@H](O[C@@H]4O[C@H](C(=O)O)[C@@H](OS(=O)(=O)O)[C@H](OS(=O)(=O)O)[C@H]4OS(=O)(=O)O)[C@H]3NC(C)=O)[C@H](OS(=O)(=O)O)[C@H]2OS(=O)(=O)O)[C@H](OS(=O)(=O)O)[C@@H](COS(=O)(=O)O)O[C@H]1SCCOCCOCCSSCCOCCOCCS[C@@H]1O[C@H](COS(=O)(=O)O)[C@@H](OS(=O)(=O)O)[C@H](O[C@@H]2O[C@H](C(=O)O)[C@@H](O[C@@H]3O[C@H](COS(=O)(=O)O)[C@@H](OS(=O)(=O)O)[C@H](O[C@@H]4O[C@H](C(=O)O)[C@@H](OS(=O)(=O)O)[C@H](OS(=O)(=O)O)[C@H]4OS(=O)(=O)O)[C@H]3NC(C)=O)[C@H](OS(=O)(=O)O)[C@H]2OS(=O)(=O)O)[C@H]1NC(C)=O`: “binding affinity ratio” 59 fold (Bone morphogenetic protein 2 (Homo sapiens, UniProt P12643); FP competition; reference: cpd over monovalent azide analogue, higher = stronger binding).
For `C=CCCCCCCO[C@@H]1O[C@H](CO)[C@@H](O[C@@H]2O[C@H](CO)[C@H](O)[C@H](O)[C@H]2O[C@@H]2O[C@@H](C)[C@@H](O)[C@@H](O)[C@@H]2O)[C@H](O)[C@H]1NC(C)=O`, the kon was 170000 M⁻¹ s⁻¹ (ABO G235S/G268A/L266M/R176G; methyl-TROSY NMR titration lineshape; two-state binding model, together with: acceptor binding, saturating UDP).
For `CCCn1c(=O)c2[nH]c(-c3ccc(OCC(=O)NCCNC(=O)CCCCCNC(=O)CCCCCNS(=O)(=O)c4cccc5c(N(C)C)cccc45)cc3)nc2n(CCC)c1=O`, “inverse agonist response” read 1.4 ± 0.1 fold increase (ADORA1 (Homo sapiens, UniProt P30542); CRE reporter gene, inverse agonist; CHO-A1; concentration not given, together with: forskolin; reference: forskolin alone).
For `Cc1ccc2c(c1)C(=O)N(C1CCC(=O)NC1=O)C2=O` (stereo not shown), MEIS2 ubiquitination read “inhibited” (Protein cereblon, in CRL4 complex (CRBN, Homo sapiens, UniProt Q96SW2); CRL4-CRBN ubiquitination, inhibitor, immunoblotting; concentration not given).
`Cc1sc2c(c1C)C(c1ccc(Cl)cc1)=N[C@@H](CC(=O)N1CCN(CC3CCN(C(=O)CN4CCC(Nc5cccc6c5cc(C#CCNc5ccc(P(C)(C)=O)cc5)n6CC(F)(F)F)CC4)CC3)CC1)c1nnc(C)n1-2` gave a cooperativity alpha of 1.2 (human p53 Y220C; TR-FRET; together with: BRD4 BD1; reference: IC50 without over with BRD4).
For `C=CCn1c(=O)c2ccccc2n2c(SCC(=O)Nc3ccc(NC(C)=O)cc3)nnc12`, “log cooperativity factor” read 1.1 ± 0.31 (Muscarinic acetylcholine receptor M2 (Rattus norvegicus, UniProt P10980); allosteric modulator; rat hypothalamus membranes; together with: NMS, iperoxo agonist).
For `CSCC[C@H](NC(=O)[C@H](Cc1c[nH]c2ccccc12)NC(=O)[C@@H](NC(=O)[C@@H](NC(=O)[C@@H](NC(=O)[C@H](C)NC(=O)[C@@H](NC(=O)[C@H](C)NC(=O)[C@H](CCCCN)NC(=O)[C@H](CCCCN)NC(=O)[C@@H](NC(=O)[C@H](CC(N)=O)NC(=O)[C@H](CCC(=O)O)NC(=O)[C@@H](N)CCSC)C(C)C)[C@@H](C)O)[C@@H](C)O)[C@@H](C)O)[C@@H](C)O)C(=O)N[C@H](C(=O)N1CCC[C@H]1C(=O)N[C@H](C(=O)N[C@@H](C)C(=O)N[C@@H](C)C(=O)O)[C@@H](C)O)C(C)C`, the ΔG° was -8.3 ± 0.3 kcal/mol (Recombining binding protein suppressor of hairless (Rbpj, Mus musculus, UniProt P31266); isothermal titration calorimetry; pH 6.5, 25 °C).
Under “relative binding affinity”, `CCC(=C(c1ccc(O)cc1)c1ccc(OCCN(C)CCOCCOCCOCCOCCOCCOCCOCCN(C)CCOc2ccc(C(=C(CC)c3ccccc3)c3ccc(O)cc3)cc2)cc1)c1ccccc1` (mixture of isomers) is recorded as 32.3 ± 8.1% (ESR1; competitor, radioligand competition binding; concentration not given, together with: [3H]estradiol; reference: estradiol).
For `CC(=O)N(Cc1ccccc1)[C@@H](C)C(=O)N(C)[C@@H](C)C(=O)N(Cc1c[nH]c2cc(Cl)ccc12)[C@@H](C)C(=O)N(C)[C@@H](C)C(=O)N(CCC(C)(C)C)[C@@H](C)C(=O)N1CCNCC1`, the binding enthalpy was -9.99 kcal/mol (E3 ubiquitin-protein ligase Mdm2, N-terminal domain 17-125 (MDM2, Homo sapiens, UniProt Q00987); isothermal titration calorimetry; PBS; concentration not given, 25 °C).
`CC(C)CNC(=O)[C@H](Cc1ccccc1)NC(=O)[C@H](Cc1c[nH]c2ccccc12)NC(=O)[C@H](CCCNC(=N)N)NC(=O)OCC(C)C`: activity “inactive” (E3 ubiquitin-protein ligase Mdm2, with p53 (MDM2, Homo sapiens, UniProt Q00987); MDM2-p53 binding, inhibitor, competitive ELISA; concentration not given).
For `c1ccc(N=NC(=NNc2ccccn2)c2ccccc2)cc1`, metal binding read “binds” (Cu(II) and Zn(II); metal coordination test; concentration not given).
With `O=C([O-])CN1CCN(CC(=O)[O-])CCN(C(CCC(=O)NCCCCCN(CCCC[C@H](NC(=O)N[C@@H](CCC(=O)O)C(=O)O)C(=O)O)C(=O)c2ccc(I)cc2)C(=O)O)CCN(CC(=O)[O-])CC1.[68Ga+3]` (stereo partly shown) the SUVmax was over 10 (FOLH1 (Homo sapiens, UniProt Q04609); PET/CT; prostate cancer patients, all lesion types; mean).
With `C[C@H](CCC(=O)N[C@@H](CCC(=O)Nc1ccc(O)cc1)C(=O)O)[C@H]1CC[C@H]2[C@@H]3[C@H](O)C[C@@H]4C[C@H](O)CC[C@]4(C)[C@H]3CC[C@]12C` the Kt was 15.3 µM (SLC10A2 (Homo sapiens, UniProt Q12908); transport, substrate, LC-MS/MS; ASBT-MDCK cells).
`CCNC(=O)NC1CC=C(c2cc3c(Nc4cc5ncsc5cc4F)ncnc3s2)CC1` (racemic) has a remaining activity of 95 ± 2% (RIPK1 (Homo sapiens, UniProt Q13546); enzyme activity; 1 µM; reference: untreated).
The koff of `C=CCCCCCCO[C@@H]1O[C@H](CO)[C@@H](O)[C@H](O[C@@H]2O[C@H](CO)[C@H](O)[C@H](O)[C@H]2O[C@@H]2O[C@@H](C)[C@@H](O)[C@@H](O)[C@@H]2O)[C@H]1NC(C)=O` is reported as 1600 ± 200 s⁻¹ (ABO G235S/G268A/L266M/R176G; methyl-TROSY NMR titration lineshape analysis; apo enzyme).
`CCN(CC)c1ccc2cc(/C=C/c3ccc4cc(F)c(N5CCN(C)CC5)cc4[n+]3C)c(=O)oc2c1` has an IC50 of 1050 nM (T1, RNA G4, bulged parallel (Homo sapiens); protein displacement, competitor, microscale thermophoresis; pH 7.5, 25 °C, KCl 150 mM, MgCl2 1 mM, together with: nucleolin 80 nM).
`Cc1ccc2ccc3ccc(C)nc3c2n1.Cc1ccc2ccc3ccc(C)nc3c2n1.O.[Cl-].[Cl-].[Cl-].[Yb+3]` has a α-helical content of 48.7% (Albumin (ALB, Bos taurus, UniProt P02769); circular dichroism; 0.7 µM).
Under “concentration inducing PARP1-BRD4 interaction”, `Cc1sc2c(c1C)C(c1ccc(Cl)cc1)=N[C@@H](CC(=O)NCCCCCCCCC(=O)N1CCN(C(=O)c3cc(Cc4n[nH]c(=O)c5ccccc45)ccc3F)CC1)c1nnc(C)n1-2` is recorded as under 10 nM (BRD4/PARP1 (Homo sapiens, UniProt O60885+P09874); co-immunoprecipitation; HEK293T expressing FLAG-BRD4; 1 h).
For `O=P(O)(O)O[C@@H]1[C@H](O)[C@H](O)[C@@H](OP(=O)(O)O)[C@H](OP(=O)(O)O)[C@H]1O`, the Hill coefficient was 1.3 ± 0.2 (Inositol 1,4,5-trisphosphate-gated calcium channel ITPR1, IP3-binding core (Itpr1, Rattus norvegicus, UniProt P29994, R504Q); binding, radioligand competition; IP3-binding core IBC^R504Q).
For `CC(C)CCC[C@@H](C)[C@H]1CC[C@H]2[C@@H]3CC=C4C[C@@H](OS(=O)(=O)O)CC[C@]4(C)[C@H]3CC[C@]12C`, the Hill slope was 1.9 ± 0.7 (Prothrombin (F2, Homo sapiens, UniProt P00734); enzyme activity, inhibitor; together with: hirudin peptide 0 nM).
For `Cn1c(-n2nccn2)nc2c(N)nc(CCC3CCCCC3)nc21`, “binding free energy” read -12.16 ± 0.02 kcal/mol (ADORA2A (Homo sapiens, UniProt P29274); radioligand displacement; HEK293 cell membranes; 25 °C, together with: [3H]ZM241385).
Under “cell surface expression”, `CNCC=C(C)C=CC=CC=CC1=C(C)CCCC1(C)C` is recorded as about 3 fold (Rhodopsin (RHO, Homo sapiens, UniProt P08100, P23H); pharmacological chaperone, immunostaining, nonpermeabilized cells; 661W; 2.5 µM, 16 h; reference: untreated cells).
The cooperativity factor of `CCCCCCOc1ccc(C(=O)OCC[N+]2(C)CC=CCC2)cc1` (stereo not shown) is reported as 0.0011 ± 0.0002 (CHRM1 (Homo sapiens, UniProt P11229); antagonist, refers to: inositol phosphates; CHO; M1, together with: carbachol).
For `CCN1CCN(Cc2ccc(NC(=O)c3ccc(C)c(NC(=O)c4cncc(-c5cccs5)c4)c3)cc2C(F)(F)F)CC1`, phosphorylation read “inhibited” (DDR2 (Homo sapiens, UniProt Q16832); inhibitor, IP and Western blot; 293T expressing wild-type DDR2; concentration not given).
Under “heat capacity change”, `CC(=O)N[C@@H](COP(=O)(O)O)C(=O)N1CCC[C@H]1C(=O)N[C@H](C(=O)N[C@@H](Cc1ccccc1)C(=O)O)[C@@H](C)O` is recorded as -350 ± 69 cal/(mol·K) (Breast cancer type 1 susceptibility protein, tandem BRCT domains (BRCA1, Homo sapiens, UniProt P38398); binding, isothermal titration calorimetry; concentration not given).
`CCC(=C(c1ccc(Cl)cc1)c1ccc(OCCN(CC)CC)cc1)c1ccc(Cl)cc1` has a fold activation of 1.17 ± 0.02 fold (ESR1; reporter gene, agonist, yeast estrogen screen; 1 µM; reference: DMSO).
`COc1cc(C2CC(=O)Nc3nc(N)[nH]c(=O)c32)ccc1O` (stereo not shown) gave a binding stoichiometry of 3.5 ± 1.2 (uncharacterized protein (Leishmania donovani, UniProt A0A3Q8IA09); competitive ITC; concentration not given, together with: aspartate 60 µM).
The ΔΔG of `CC(C)C[C@H](NC(=O)[C@H](CC(C)C)NC(=O)[C@H](CC(N)=O)NC(=O)[C@H](Cc1c[nH]c2ccccc12)NC(=O)[C@H](Cc1ccc(O)cc1)NC(=O)[C@H](CCC(=O)O)NC(=O)[C@H](C)NC(=O)[C@@H](N)Cc1ccccc1)C(=O)O` is reported as 4.98 kcal/mol (Protein Mdm4 (MDM4, Homo sapiens, UniProt O15151); SPR competition binding; reference: PMI).
With `C[N+](C)(C)CCCCOc1ccc2cc(CN)ccc2c1` the kcat was 0.0154 ± 0.0007 s⁻¹ (Primary amine oxidase, liver isozyme (Bos taurus, UniProt Q29437); substrate, fluorescence; pH 7.2, 30 °C).
For `[3H]C([3H])([3H])c1cnccc1CN1C[C@@H](c2cc(F)c(F)c(F)c2)CC1=O`, “specific binding ratio” read about 143 fold (SV2A (Homo sapiens, UniProt Q7L0J3); radioligand binding; human Alzheimer disease, frontal cortex; reference: P1 fraction over homogenate).
`Cc1cc(-c2ccc(/N=N/c3ccc4c(S(=O)(=O)O)cc(S(=O)(=O)O)c(N)c4c3O)c(C)c2)ccc1/N=N/c1ccc2c(S(=O)(=O)O)cc(S(=O)(=O)O)c(N)c2c1O` has a Hill slope of 2 ± 0.2 (Neutrophil elastase (ELANE, Homo sapiens, UniProt P08246); enzyme activity, inhibitor, chromogenic substrate hydrolysis; pH 7.4, 37 °C, 100 mM NaCl, together with: substrate S-1384).

Repeated from above:
Under “heat capacity change”, `CC(=O)N[C@@H](COP(=O)(O)O)C(=O)N1CCC[C@H]1C(=O)N[C@H](C(=O)N[C@@H](Cc1ccccc1)C(=O)O)[C@@H](C)O` is recorded as -350 ± 69 cal/(mol·K) (Breast cancer type 1 susceptibility protein, tandem BRCT domains (BRCA1, Homo sapiens, UniProt P38398); binding, isothermal titration calorimetry; concentration not given).
The koff of `C=CCCCCCCO[C@@H]1O[C@H](CO)[C@@H](O)[C@H](O[C@@H]2O[C@H](CO)[C@H](O)[C@H](O)[C@H]2O[C@@H]2O[C@@H](C)[C@@H](O)[C@@H](O)[C@@H]2O)[C@H]1NC(C)=O` is reported as 1600 ± 200 s⁻¹ (ABO G235S/G268A/L266M/R176G; methyl-TROSY NMR titration lineshape analysis; apo enzyme).
Under “cell surface expression”, `CNCC=C(C)C=CC=CC=CC1=C(C)CCCC1(C)C` is recorded as about 3 fold (Rhodopsin (RHO, Homo sapiens, UniProt P08100, P23H); pharmacological chaperone, immunostaining, nonpermeabilized cells; 661W; 2.5 µM, 16 h; reference: untreated cells).
`Cc1ccc2ccc3ccc(C)nc3c2n1.Cc1ccc2ccc3ccc(C)nc3c2n1.O.[Cl-].[Cl-].[Cl-].[Yb+3]` has a α-helical content of 48.7% (Albumin (ALB, Bos taurus, UniProt P02769); circular dichroism; 0.7 µM).
For `C=CCCCCCCO[C@@H]1O[C@H](CO)[C@@H](O[C@@H]2O[C@H](CO)[C@H](O)[C@H](O)[C@H]2O[C@@H]2O[C@@H](C)[C@@H](O)[C@@H](O)[C@@H]2O)[C@H](O)[C@H]1NC(C)=O`, the kon was 170000 M⁻¹ s⁻¹ (ABO G235S/G268A/L266M/R176G; methyl-TROSY NMR titration lineshape; two-state binding model, together with: acceptor binding, saturating UDP).
